Measurements from different studies.
Protocols differ between the studies behind these lines.
Cell line: NCI-H23
Method: SRB

The inhibition of `COc1ccc(C2=Nn3c(NN=C4C(=O)N(C)c5ccc(Br)cc54)nnc3SC2)cc1` is reported as 19% (cell growth or viability; 10 µM).
The growth percent of `COc1cc(CNC(=O)C[C@H](C)CCC=C(C)C)ccc1OCc1cn(-c2ccccc2[N+](=O)[O-])nn1` is reported as 62.5% (10 µM, 48 h).
`CC(=O)OC[C@H]1O[C@@H](Sc2sc(C(=O)c3ccc(Br)cc3)c(N)c2-c2nc3ccccc3s2)[C@H](OC(C)=O)[C@@H](OC(C)=O)[C@@H]1OC(C)=O` gave a growth of 23.8% (10 µM, 48 h; relative to: untreated).
The growth percent of `COc1cc(CNC(=O)C[C@H](C)CCC=C(C)C)ccc1OCc1cn(-c2cccc(Cl)c2)nn1` is reported as 72.9% (10 µM, 48 h).
The growth of `CC(=O)OC[C@H]1O[C@@H](Sc2sc(C(=O)c3ccc(C)cc3)c(N)c2-c2nc3ccccc3s2)[C@H](OC(C)=O)[C@@H](OC(C)=O)[C@H]1OC(C)=O` is reported as 83.7% (10 µM, 48 h; relative to: untreated).
`CC(=C(c1ccc(O)cc1)c1ccc(Cl)cc1)c1ccc(Cl)cc1` has a GI50 of 760 nM (cell growth or viability).
The growth percent of `COc1cc(CNC(=O)C[C@H](C)CCC=C(C)C)ccc1OCc1cn(-c2ccccc2Cl)nn1` is reported as 64.5% (10 µM, 48 h).
The GI50 of `CCC(=C(c1ccc(Cl)cc1)c1ccc(OCCCN(C)C)cc1)c1ccc(OC)cc1` is reported as 7430 nM (cell growth or viability).
`COc1ccc2c(c1)/C(=N\Nc1nnc3n1N=C(c1ccccc1)CS3)C(=O)N2` has an inhibition of 35% (cell growth or viability; 10 µM).
`CC/C=C\C/C=C\C/C=C\C/C=C\C/C=C\C/C=C\CCC(=O)Nc1ccn(C2OC(CO)C(O)C2(F)F)c(=O)n1` (stereo not shown) has a GI50 of 15.7 nM (cell growth or viability).

Repeated from above:
`CC(=C(c1ccc(O)cc1)c1ccc(Cl)cc1)c1ccc(Cl)cc1` has a GI50 of 760 nM (cell growth or viability).
The growth percent of `COc1cc(CNC(=O)C[C@H](C)CCC=C(C)C)ccc1OCc1cn(-c2ccccc2Cl)nn1` is reported as 64.5% (10 µM, 48 h).
